Assay results of several laboratories.
Protocols differ between the studies behind these lines. ± marks the error that the study gave.
ESR1: Estrogen receptor (ESR1, Homo sapiens, UniProt P03372)
ALB: Albumin (ALB, Homo sapiens, UniProt P02768)
SLC10A2: Ileal sodium/bile acid cotransporter (SLC10A2, Homo sapiens, UniProt Q12908)
T1: DNA aptamer; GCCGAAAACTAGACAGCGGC
T2: pre-miR-21 RNA, A bulge to A-U pair (Homo sapiens); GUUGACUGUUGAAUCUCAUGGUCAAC

| Structure (SMILES) | target | assay | system | setting | how to read | endpoint | value |
| --- | --- | --- | --- | --- | --- | --- | --- |
| NCCCC[C@H](NC(=O)[C@H](C/C=C\C[C@H](NC(=O)[C@@H]1CCCN1)C(=O)N[C@@H](CCCCN)C(=O)NCCCN)NC(=O)[C@@H]1CCCN1)C(=O)NCCCN | (CCUG)10 RNA | SPR |  |  |  | residence time | 2 s |
| CCN(CC)C(=O)c1ccc(O)c(OC)c1 | Heat shock protein HSP 90-alpha, N-terminal domain (HSP90AA1, Homo sapiens, UniProt P07900) | binding, ligand-observed NMR titration |  | ligand to protein ratio 202 |  | contrast | 54% |
| CCC(=C(c1ccc(O)cc1)c1ccc(OCCN(C)CCOCCOCCOCCOCCOCCOCCOCCN(C)CCOc2ccc(C(=C(CC)c3ccccc3)c3ccc(O)cc3)cc2)cc1)c1ccccc1 (mixture of isomers) | ESR1 | ligand, radioligand competition binding |  | concentration not given, with: [3H]estradiol tracer | baseline: estradiol | relative binding affinity | 30.7 ± 2.8% |
| [C-]#[O+].[C-]#[O+].[C-]#[O+].[C-]#[O+].[C-]#[O+].[C-]#[O+].[Cl-].[Cl-].[Re+].[Re+].c1cnc(-c2ncccn2)nc1 | ALB | tryptophan fluorescence quenching |  |  |  | quenching rate constant | 4.49e+13 M⁻¹ s⁻¹ |
| CN1CCN(CC(=O)N2N=C3/C(=C/c4ccccc4)CCCC3C2c2ccccc2)CC1 (mixture of isomers) | Polyunsaturated fatty acid lipoxygenase ALOX15 (ALOX15, Homo sapiens, UniProt P16050) | activator |  | 20 µM, with: arachidonic acid | baseline: activator 0 µM | enzyme activity | 212% |
| N=C(N)NCCC[C@H](NC(=O)[C@H](CC(=O)O)NC(=O)[C@@H]1CSCCC(=O)NCC(=O)N[C@@H](Cc2c[nH]cn2)C(=O)N[C@H](Cc2ccccc2)C(=O)N[C@@H](CCCNC(=N)N)C(=O)N[C@H](Cc2c[nH]c3ccccc23)C(=O)N1)C(=O)N[C@@H](Cc1ccccc1)C(=O)NCC(N)=O | Melanocortin receptor 3 (MC3R, Homo sapiens, UniProt P41968) | cAMP accumulation, agonist | HEK293 expressing MC3R | 10 µM | baseline: MT-II | activation | 50% |
| CC(=N)NCc1cccc(CN)c1 | Nitric oxide synthase 1 (Mus musculus, UniProt Q9Z0J4) |  | adult mouse hippocampal slices | 1 µM, with: EHNA 300 µM |  | NMDA-evoked cGMP accumulation | no effect |
| Cc1sc2c(c1C)C(c1ccc(Cl)cc1)=N[C@@H](CC(=O)NCCCCCCCCC(=O)N1CCN(C(=O)c3cc(Cc4n[nH]c(=O)c5ccccc45)ccc3F)CC1)c1nnc(C)n1-2 | BRD4/PARP1 (Homo sapiens, UniProt O60885+P09874) | co-immunoprecipitation | HEK293T expressing FLAG-BRD4 | 1 h |  | concentration inducing PARP1-BRD4 interaction | < 10 nM |
| CC(=O)N[C@H]1[C@@H](OP(=O)(O)OP(=O)(O)OC[C@H]2O[C@@H](n3ccc(=O)[nH]c3=O)[C@H](O)[C@@H]2O)O[C@H](CO)[C@@H](O)[C@@H]1O | Histo-blood group ABO system transferase (ABO, Homo sapiens, UniProt P16442) | binding, NMR |  |  |  | koff | 22 s⁻¹ |
| Cc1ccc(NC(=O)CCC(NC(=O)CCC(C)C2CCC3C4C(O)CC5CC(O)CCC5(C)C4CCC23C)C(=O)O)c(C)n1 (centres unmarked) | SLC10A2 | transport, substrate | ASBT-MDCK cells | unit not given | baseline: taurocholate Jmax | Jmax | 0.511 |
| C[C@H](Cn1cnc2c(N)ncnc21)OCP(=O)(O)O | T1, DNA aptamer | interferometric free solution assay |  | 2 h, 22 °C, NaCl 150 mM, single-site fit |  | Kd | 6.64 nM |
| CNC(=O)C(NC(=O)C1CN(C(=O)c2cnn(Cc3ccccc3)c2)CC12CN(C(=O)C1CC1(C)C)C2)C(C)OCCC1CCCCC1 (centres unmarked) | human cyclin E1 wild type:CDK2-NanoLuc | NanoBRET | HEK293T cell lysate | orthosteric site, with: tracer K-10 0.2 µM |  | tracer displacement | no effect |
| Oc1cc(C(F)F)ncn1 | Dual specificity protein phosphatase 14 (DUSP14, Homo sapiens, UniProt O95147) | 19F NMR |  | concentration not given |  | binding | no binding |
| Cc1ccc(C(=O)Nc2cc(S(=O)(=O)O)cc3ccc(S(=O)(=O)O)cc23)cc1NC(=O)Nc1cc(C(=O)Nc2cc(S(=O)(=O)O)cc3ccc(S(=O)(=O)O)cc23)ccc1C | Neutrophil elastase (ELANE, Homo sapiens, UniProt P08246) | enzyme activity, inhibitor, chromogenic substrate hydrolysis |  | pH 7.4, 37 °C, 100 mM NaCl, with: substrate S-1384 |  | maximal inhibition | 104 ± 13.6% |
| CN(C)CCCOc1ccc2cc(CN)ccc2c1 | Primary amine oxidase, liver isozyme (Bos taurus, UniProt Q29437) | substrate, fluorescence |  | pH 7.2, 30 °C |  | Km | 0.163 ± 0.012 µM |
| CC(=O)N[C@@H](CCCNC(=N)N)C(=O)N[C@H](Cc1ccc(O)cc1)C(=O)N[C@@H](CCCNC(=N)NC(=O)NCCCCN)C(=O)N[C@@H](CC(C)C)C(=O)N[C@@H](CCCNC(=N)N)C(=O)N[C@@H](Cc1ccc(O)cc1)C(N)=O | Neuropeptide Y receptor type 4 (NPY4R, Homo sapiens, UniProt P50391) | β-arrestin-2 recruitment, agonist | HEK293T | concentration not given, unit not given | baseline: 1 µM human pancreatic polypeptide | intrinsic activity | 0.49 |

| Structure (SMILES) | target | assay | system | setting | how to read | endpoint | value |
| --- | --- | --- | --- | --- | --- | --- | --- |
| O=S([O-])c1ccccc1N=Cc1ccccc1[O-].[Cu+2].c1c[nH]cn1 | ALB | FRET |  |  |  | Förster radius | 2.48 nm |
| CC(C=O)Cc1ccc(C(C)(C)C)cc1 (centres unmarked) | Olfactory receptor 2T4 (OR2T4, Homo sapiens, UniProt Q8NH00) | GFP reporter, agonist | yeast olfactory receptor sensor |  | baseline: DMSO | fold increase | > 2 fold |
| Cc1nc2c(N)[n+]3cnc2n1[C@@H]1O[C@H](COP(=O)([O-])OP(=O)(O)OC[C@H]2O[C@@H]3[C@H](O)[C@@H]2O)[C@@H](O)[C@H]1O | cADPR receptor, sea urchin | cADPR-induced Ca2+ release, antagonist | sea urchin egg homogenate |  | baseline: compound over 8-amino-cADPR | IC50 ratio | 53 |
| O=C1C[C@@H](c2ccc(O)c(-c3c(O)cc(O)c4c3O[C@H](c3ccc(O)cc3)CC4=O)c2)Oc2cc(O)cc(O)c21 | PRXC1A (Armoracia rusticana, UniProt P00433) | oxidation, substrate |  |  |  | Vmax | 2.49 ± 0.8 µmol/min/mg |
| CC(CCC(=O)NC(CCC(=O)Nc1cccc(N)n1)C(=O)O)C1CCC2C3C(O)CC4CC(O)CCC4(C)C3CCC12C (centres unmarked) | SLC10A2 | transport, substrate, LC-MS/MS | ASBT-MDCK cells |  |  | Kt | 4.44 µM |
| CCC(=C(c1ccc(O)cc1)c1ccc(OCCN(C)CCOCCOCCOCCOCCN(C)CCOc2ccc(C(=C(CC)c3ccccc3)c3ccc(O)cc3)cc2)cc1)c1ccccc1 (mixture of isomers) | Estrogen receptor beta (ESR2, Homo sapiens, UniProt Q92731) | radioligand competition binding |  | concentration not given, Z-Z/Z isomer form, with: [3H]estradiol tracer | baseline: estradiol | relative binding affinity | 12.2 ± 2.1% |
| CC(Cc1ccc(Cl)cc1)=C(c1ccc(Cl)cc1)c1ccc(OCCN2CCOCC2)cc1 | ESR1 | reporter gene, agonist, yeast estrogen screen |  | 1 µM | baseline: DMSO | fold activation | 1.07 ± 0.16 fold |
| CCCCOc1ccc(C(=O)OCC[N+]2(C)CC=CCC2)cc1 (centres unmarked) | Muscarinic acetylcholine receptor M3 (CHRM3, Homo sapiens, UniProt P20309) | recovery of [3H]NMS binding after washing | membranes | 100 µM |  | dissociation half-time | 0.4 ± 0.1 h |
| O=C([O-])CN1CCN(CC(=O)[O-])CCN(C(CCC(=O)NCCCCCN(CCCC[C@H](NC(=O)N[C@@H](CCC(=O)O)C(=O)O)C(=O)O)C(=O)c2ccc(I)cc2)C(=O)O)CCN(CC(=O)[O-])CC1.[68Ga+3] (some centres unmarked) | Glutamate carboxypeptidase 2 (FOLH1, Homo sapiens, UniProt Q04609) | PET/CT | prostate cancer patients, primary prostate lesions | mean, lesion SUVmax | baseline: gluteal muscle SUVmean | tumour-to-background ratio | 30.5 |
| O=Cc1ccc(-c2cn([C@@H]3O[C@H](COP(=O)(O)OP(=O)(O)O[C@H]4O[C@H](CO)[C@H](O)[C@H](O)[C@H]4O)[C@@H](O)[C@H]3O)c(=O)[nH]c2=O)s1 | Histo-blood group ABO system transferase (ABO, Homo sapiens, UniProt P16442, G268A/L266G) | galactosyltransferase activity, substrate, HPLC |  |  |  | Km | < 0.4 µM |
| CC1=C(/C=C/C(C)=C/C=C/C(C)=C/C=O)C(C)(C)CCC1 | Cyclic nucleotide-gated channel alpha-1 (CNGA1, Bos taurus, UniProt Q00194) | allosteric model fit |  |  |  | cooperativity constant n | 1.43 |
| CN1CCN(c2ccc(-c3ccc4[nH]c(-c5ccc(OCCCC(=O)N6CCN(c7nncc8sccc78)CC6)cc5)nc4c3)cc2)CC1 | T2, pre-miR-21 RNA, A bulge to A-U pair (Homo sapiens) | microscale thermophoresis |  |  |  | Kd | > 10000 nM |
| O=P(O)(O)O[C@@H]1[C@@H](O)[C@H](O)[C@H](O)[C@H](O)[C@H]1OP(=O)(O)O | Inositol 1,4,5-trisphosphate-gated calcium channel ITPR1 (Itpr1, Rattus norvegicus, UniProt P29994, del318-332/R568Q) | Ca2+ release, agonist | permeabilized DT40 cells |  |  | Hill coefficient | 1.1 ± 0.2 |
| CNc1ccccc1C(=O)O[C@H]1C[C@H](n2cnc3c(N)ncnc32)O[C@@H]1COP(=O)(O)OP(=O)(O)O | Unconventional myosin-Va (Gallus gallus, UniProt Q02440, D297C/G292C/I296C/S293C/V295G) | FRET | compound complex | 4 °C, with: 4 mM EDTA |  | donor-acceptor distance | 12.5 Å |
| N[C@@H](Cc1ccc(O)c(I)c1)C(=O)O | Iodotyrosine deiodinase (IYD, Thermotoga neapolitana, UniProt B9K712, M41K) | binding, FMN fluorescence quenching |  | 25 °C |  | Kd ratio, M41K over wild type | 22 fold |
| Nc1ncc(-c2nc(N3CCOCC3)nc(N3CCN(C(=O)CCC(=O)N4CCN(CCCCCCNc5cccc6c5C(=O)N(C5CCC(=O)NC5=O)C6=O)CC4)CC3)n2)c(C(F)F)n1 (centres unmarked) | Phosphatidylinositol 4,5-bisphosphate 3-kinase catalytic subunit alpha isoform (PIK3CA, Homo sapiens, UniProt P42336, E545K) | degrader, parallel reaction monitoring | MCF7 | 1 nM, 6 h |  | degradation | 80% |

Some of these lines once more:
| Structure (SMILES) | target | assay | system | setting | how to read | endpoint | value |
| --- | --- | --- | --- | --- | --- | --- | --- |
| C[C@H](Cn1cnc2c(N)ncnc21)OCP(=O)(O)O | T1, DNA aptamer | interferometric free solution assay |  | 2 h, 22 °C, NaCl 150 mM, single-site fit |  | Kd | 6.64 nM |
| CNC(=O)C(NC(=O)C1CN(C(=O)c2cnn(Cc3ccccc3)c2)CC12CN(C(=O)C1CC1(C)C)C2)C(C)OCCC1CCCCC1 (centres unmarked) | human cyclin E1 wild type:CDK2-NanoLuc | NanoBRET | HEK293T cell lysate | orthosteric site, with: tracer K-10 0.2 µM |  | tracer displacement | no effect |
| Oc1cc(C(F)F)ncn1 | Dual specificity protein phosphatase 14 (DUSP14, Homo sapiens, UniProt O95147) | 19F NMR |  | concentration not given |  | binding | no binding |
| Cc1ccc(C(=O)Nc2cc(S(=O)(=O)O)cc3ccc(S(=O)(=O)O)cc23)cc1NC(=O)Nc1cc(C(=O)Nc2cc(S(=O)(=O)O)cc3ccc(S(=O)(=O)O)cc23)ccc1C | Neutrophil elastase (ELANE, Homo sapiens, UniProt P08246) | enzyme activity, inhibitor, chromogenic substrate hydrolysis |  | pH 7.4, 37 °C, 100 mM NaCl, with: substrate S-1384 |  | maximal inhibition | 104 ± 13.6% |
| CN(C)CCCOc1ccc2cc(CN)ccc2c1 | Primary amine oxidase, liver isozyme (Bos taurus, UniProt Q29437) | substrate, fluorescence |  | pH 7.2, 30 °C |  | Km | 0.163 ± 0.012 µM |
